# Assay results gathered from unrelated publications.
# Compare with care: the assays were run in different laboratories. “And” joins repeats or separate records; there may be more than shown. ± gives the spread as reported.
# qscR DNA-bound: qscR, DNA-bound (Pseudomonas aeruginosa, UniProt G3XD77)
# ABL2 SH2 domain: Tyrosine-protein kinase ABL2, SH2 domain (ABL2, Homo sapiens, UniProt P42684)
# Sequence of UniProt P42684 (whole entry, looked up): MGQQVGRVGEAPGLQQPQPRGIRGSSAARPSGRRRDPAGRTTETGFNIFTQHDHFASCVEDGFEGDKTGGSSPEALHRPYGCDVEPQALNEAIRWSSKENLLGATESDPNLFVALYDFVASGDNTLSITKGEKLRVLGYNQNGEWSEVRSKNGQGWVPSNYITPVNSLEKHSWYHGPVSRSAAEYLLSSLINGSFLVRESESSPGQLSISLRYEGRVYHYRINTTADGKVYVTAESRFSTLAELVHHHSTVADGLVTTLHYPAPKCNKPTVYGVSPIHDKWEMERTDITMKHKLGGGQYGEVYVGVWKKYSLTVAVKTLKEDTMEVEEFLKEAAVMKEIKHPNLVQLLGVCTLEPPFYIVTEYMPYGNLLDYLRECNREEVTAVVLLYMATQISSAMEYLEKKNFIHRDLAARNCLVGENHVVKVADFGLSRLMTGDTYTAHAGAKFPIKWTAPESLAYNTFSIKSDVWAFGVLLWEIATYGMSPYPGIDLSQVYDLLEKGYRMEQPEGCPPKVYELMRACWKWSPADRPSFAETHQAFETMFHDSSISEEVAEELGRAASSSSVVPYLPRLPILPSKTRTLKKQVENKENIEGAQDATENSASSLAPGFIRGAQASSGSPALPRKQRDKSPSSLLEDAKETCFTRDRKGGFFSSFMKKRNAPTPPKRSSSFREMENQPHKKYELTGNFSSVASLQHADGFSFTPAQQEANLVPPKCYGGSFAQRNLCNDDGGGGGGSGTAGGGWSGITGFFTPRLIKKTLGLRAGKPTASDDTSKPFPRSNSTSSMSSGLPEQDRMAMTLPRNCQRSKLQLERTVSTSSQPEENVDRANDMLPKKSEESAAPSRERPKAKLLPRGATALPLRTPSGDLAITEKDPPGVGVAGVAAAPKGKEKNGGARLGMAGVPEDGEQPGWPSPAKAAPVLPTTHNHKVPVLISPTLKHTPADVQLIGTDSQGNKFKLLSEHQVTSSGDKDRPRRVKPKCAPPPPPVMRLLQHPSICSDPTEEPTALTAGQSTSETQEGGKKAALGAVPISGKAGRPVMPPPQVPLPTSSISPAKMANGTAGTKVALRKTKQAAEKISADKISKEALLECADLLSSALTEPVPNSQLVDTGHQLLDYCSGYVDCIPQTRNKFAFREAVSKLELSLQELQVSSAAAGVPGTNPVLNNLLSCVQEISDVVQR
# BCAR3 SH2 domain: Breast cancer anti-estrogen resistance protein 3, SH2 domain (BCAR3, Homo sapiens, UniProt O75815)
# Sequence of UniProt O75815 (whole entry, looked up): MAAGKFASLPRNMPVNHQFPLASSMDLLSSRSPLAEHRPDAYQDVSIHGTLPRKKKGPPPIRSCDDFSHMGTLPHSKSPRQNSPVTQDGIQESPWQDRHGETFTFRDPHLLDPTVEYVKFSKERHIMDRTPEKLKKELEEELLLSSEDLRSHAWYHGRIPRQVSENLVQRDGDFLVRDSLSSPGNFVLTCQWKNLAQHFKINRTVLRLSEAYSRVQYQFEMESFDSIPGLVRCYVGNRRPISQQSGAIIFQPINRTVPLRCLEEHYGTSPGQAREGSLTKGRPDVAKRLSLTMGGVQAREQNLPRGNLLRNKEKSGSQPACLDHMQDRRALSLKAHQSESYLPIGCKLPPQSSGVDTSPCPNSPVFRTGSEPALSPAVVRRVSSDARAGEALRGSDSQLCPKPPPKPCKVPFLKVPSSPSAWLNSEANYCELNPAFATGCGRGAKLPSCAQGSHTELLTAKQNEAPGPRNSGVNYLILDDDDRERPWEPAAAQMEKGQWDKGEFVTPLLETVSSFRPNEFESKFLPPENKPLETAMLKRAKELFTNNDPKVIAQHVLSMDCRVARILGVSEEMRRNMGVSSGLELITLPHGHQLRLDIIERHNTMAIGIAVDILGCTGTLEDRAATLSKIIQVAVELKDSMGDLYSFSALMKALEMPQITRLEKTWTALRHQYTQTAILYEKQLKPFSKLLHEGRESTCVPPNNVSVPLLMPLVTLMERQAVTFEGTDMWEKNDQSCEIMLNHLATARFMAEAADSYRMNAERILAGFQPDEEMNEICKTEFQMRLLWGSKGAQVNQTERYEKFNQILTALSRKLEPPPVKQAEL
# Sequence of UniProt P35228 (whole entry, unmodified, looked up): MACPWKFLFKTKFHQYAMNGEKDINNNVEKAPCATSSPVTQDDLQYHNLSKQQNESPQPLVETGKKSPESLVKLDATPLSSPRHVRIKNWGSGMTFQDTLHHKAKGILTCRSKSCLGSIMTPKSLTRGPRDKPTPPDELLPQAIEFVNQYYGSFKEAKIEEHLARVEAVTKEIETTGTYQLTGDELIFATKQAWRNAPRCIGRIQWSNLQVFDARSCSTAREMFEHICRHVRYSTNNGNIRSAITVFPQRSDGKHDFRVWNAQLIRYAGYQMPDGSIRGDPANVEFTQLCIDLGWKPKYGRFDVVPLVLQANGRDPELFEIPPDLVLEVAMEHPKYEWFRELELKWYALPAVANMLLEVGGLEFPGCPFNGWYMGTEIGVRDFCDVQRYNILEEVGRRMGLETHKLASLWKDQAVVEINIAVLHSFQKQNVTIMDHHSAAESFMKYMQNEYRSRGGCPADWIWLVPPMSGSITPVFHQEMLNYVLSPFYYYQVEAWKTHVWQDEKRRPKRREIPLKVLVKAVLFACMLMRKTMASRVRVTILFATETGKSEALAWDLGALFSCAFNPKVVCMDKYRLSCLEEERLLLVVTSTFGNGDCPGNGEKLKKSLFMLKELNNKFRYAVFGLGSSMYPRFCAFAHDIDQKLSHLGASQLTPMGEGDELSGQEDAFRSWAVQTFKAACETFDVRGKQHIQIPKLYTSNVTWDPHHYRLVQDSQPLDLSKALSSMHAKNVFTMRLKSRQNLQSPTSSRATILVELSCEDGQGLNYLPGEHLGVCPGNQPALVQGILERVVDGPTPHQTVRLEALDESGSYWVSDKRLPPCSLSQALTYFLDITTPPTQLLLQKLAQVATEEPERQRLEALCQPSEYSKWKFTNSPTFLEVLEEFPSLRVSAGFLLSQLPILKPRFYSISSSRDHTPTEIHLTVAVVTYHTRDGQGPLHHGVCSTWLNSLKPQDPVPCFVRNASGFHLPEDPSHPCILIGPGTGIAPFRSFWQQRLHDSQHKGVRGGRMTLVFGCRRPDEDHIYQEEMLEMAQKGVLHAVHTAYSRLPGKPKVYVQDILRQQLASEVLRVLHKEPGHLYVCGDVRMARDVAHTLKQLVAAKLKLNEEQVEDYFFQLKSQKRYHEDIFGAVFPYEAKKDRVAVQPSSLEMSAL
# Sequence of UniProt Q15131 (whole entry, looked up): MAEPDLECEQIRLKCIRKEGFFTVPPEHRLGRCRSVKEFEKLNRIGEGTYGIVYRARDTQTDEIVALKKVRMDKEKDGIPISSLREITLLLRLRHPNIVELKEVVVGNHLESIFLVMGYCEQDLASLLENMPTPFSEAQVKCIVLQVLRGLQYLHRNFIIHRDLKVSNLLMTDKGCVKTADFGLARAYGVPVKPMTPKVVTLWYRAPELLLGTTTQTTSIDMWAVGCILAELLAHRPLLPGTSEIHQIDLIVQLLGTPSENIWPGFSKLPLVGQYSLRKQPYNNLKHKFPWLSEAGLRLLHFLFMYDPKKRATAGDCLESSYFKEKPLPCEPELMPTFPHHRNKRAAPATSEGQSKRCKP
# Sequence of UniProt Q7Z569 (whole entry, looked up): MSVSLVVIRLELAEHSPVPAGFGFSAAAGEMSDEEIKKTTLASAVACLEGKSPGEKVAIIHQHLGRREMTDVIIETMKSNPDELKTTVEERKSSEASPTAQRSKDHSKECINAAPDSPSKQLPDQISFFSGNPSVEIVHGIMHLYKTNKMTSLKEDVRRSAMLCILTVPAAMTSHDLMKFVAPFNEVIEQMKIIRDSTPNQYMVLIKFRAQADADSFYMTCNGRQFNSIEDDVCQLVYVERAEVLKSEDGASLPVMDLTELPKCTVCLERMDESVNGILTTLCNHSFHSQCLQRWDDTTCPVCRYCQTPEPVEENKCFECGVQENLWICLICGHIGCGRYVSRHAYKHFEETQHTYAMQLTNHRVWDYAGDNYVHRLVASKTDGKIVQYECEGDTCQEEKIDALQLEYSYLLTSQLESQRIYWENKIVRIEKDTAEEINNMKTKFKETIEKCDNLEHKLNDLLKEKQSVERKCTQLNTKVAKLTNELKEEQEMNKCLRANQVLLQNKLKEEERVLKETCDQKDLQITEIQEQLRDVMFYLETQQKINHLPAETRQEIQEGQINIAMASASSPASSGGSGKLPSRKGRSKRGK
# Sequence of UniProt P42680 (whole entry, looked up): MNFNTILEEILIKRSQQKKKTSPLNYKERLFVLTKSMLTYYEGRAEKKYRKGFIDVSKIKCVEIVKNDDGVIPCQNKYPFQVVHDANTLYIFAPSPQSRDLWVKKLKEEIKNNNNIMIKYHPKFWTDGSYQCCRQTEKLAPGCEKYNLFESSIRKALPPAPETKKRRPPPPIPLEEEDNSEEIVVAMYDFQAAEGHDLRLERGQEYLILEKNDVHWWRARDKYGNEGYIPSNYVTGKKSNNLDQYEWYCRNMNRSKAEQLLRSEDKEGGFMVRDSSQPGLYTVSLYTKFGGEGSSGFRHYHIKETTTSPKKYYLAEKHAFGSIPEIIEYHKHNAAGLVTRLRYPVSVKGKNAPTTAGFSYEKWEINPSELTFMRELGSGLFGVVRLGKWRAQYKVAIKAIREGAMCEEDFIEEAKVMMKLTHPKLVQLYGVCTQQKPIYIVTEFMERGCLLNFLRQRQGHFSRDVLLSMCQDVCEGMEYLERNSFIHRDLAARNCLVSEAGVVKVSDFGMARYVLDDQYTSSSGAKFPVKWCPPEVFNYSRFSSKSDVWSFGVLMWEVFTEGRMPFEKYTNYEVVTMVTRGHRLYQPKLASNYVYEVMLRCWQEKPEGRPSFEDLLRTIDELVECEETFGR
# Sequence of UniProt P94556 (whole entry, looked up): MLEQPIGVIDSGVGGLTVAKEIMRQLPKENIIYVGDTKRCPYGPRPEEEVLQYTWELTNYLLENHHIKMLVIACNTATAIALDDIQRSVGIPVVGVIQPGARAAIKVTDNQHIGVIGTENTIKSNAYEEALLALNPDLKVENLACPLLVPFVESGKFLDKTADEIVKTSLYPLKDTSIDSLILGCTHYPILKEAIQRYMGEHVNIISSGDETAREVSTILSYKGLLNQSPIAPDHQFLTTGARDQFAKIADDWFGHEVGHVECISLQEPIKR
SMILES,target,assay,system,conditions,Kd
CCCCCCCCCC(=O)CC(=O)Nc1ccccc1,qscR DNA-bound,"DNA binding, ligand, EMSA",,"4 °C, saturating ligand",0.00775 µM
CC(C)C[C@H](NC(=O)[C@H](CO)NC(=O)[C@H](CO)NC(=O)CNC(=O)[C@@H]1CCCN1C(=O)[C@H](Cc1ccc(O)cc1)NC(=O)[C@H](CC(C)C)NC(=O)[C@H](CO)NC(=O)[C@H](CS)NC(=O)[C@H](CC(C)C)NC(=O)[C@H](CC(C)C)NC(=O)CCCCCNC(=S)Nc1ccc2c(c1)C(=O)OC21c2ccc(O)cc2Oc2cc(O)ccc21)C(=O)O,"Epidermal growth factor receptor, extracellular domain (EGFR, Homo sapiens, UniProt P00533)","binding, fluorescence polarization",EGFR extracellular domain,"20 min, room temperature",0.327 µM
N=C(N)NCCC[C@H](N)C(=O)O,"NOS2 (Homo sapiens, UniProt P35228, E546N)",,,,235 µM and 94.4 µM
Nc1ncnc2c1ncn2[C@@H]1O[C@H](COP(=O)(O)O)[C@@H](OP(=O)(O)O)[C@H]1O,"Thermonuclease (nuc, Staphylococcus aureus, UniProt P00644)","binding, ligand-coupled folding kinetics",,"pH 7.0, 22 °C, 2.7 M urea",122 ± 7 µM
CC(=O)N[C@H]1[C@@H](O[C@H]2[C@@H](O)[C@@H](CO)OC(O)[C@@H]2O)O[C@H](CO)[C@H](O)[C@@H]1O (stereo partly drawn),Vicia villosa lectin,binding,,2 h,0.014 ± 0.004 µM
O=C(O)c1nccnc1NC(=O)c1cccc2ccccc12,"panD (Mycobacteroides abscessus, UniProt B1MGV7)",isothermal titration calorimetry,,,143 ± 5.6 µM
CC[C@H](CO)Nc1nc(NCc2ccc(-c3ccccn3)cc2)c2ncn(C(C)C)c2n1,"CDK10 (Homo sapiens, UniProt Q15131)","binding, competition affinity chromatography",SH-SY5Y cell extract,,3.05 µM
CCCCCCCCCC(=O)NC1CCCC1,"qscR, DNA-bound dimer (Pseudomonas aeruginosa, UniProt G3XD77)","ligand binding, FRET displacement",,protein with DNA,0.0148 µM
CC(=O)N[C@H]1[C@@H](OC[C@H](NC(C)=O)C(=O)N[C@@H](CO[C@H]2O[C@H](CO)[C@H](O)[C@H](O)[C@H]2NC(C)=O)C(=O)N[C@@H](CO[C@H]2O[C@H](CO)[C@H](O)[C@H](O)[C@H]2NC(C)=O)C(=O)NCC(=O)O)O[C@H](CO)[C@H](O)[C@@H]1O,Vicia villosa lectin,glycan microarray,,3 glycans per BSA,0.0016 ± 0.0003 µM
CC[C@H](C)[C@H](NC(=O)[C@H](CC(=O)O)NC(=O)[C@H](C)NC(=O)[C@H](Cc1ccc(OP(=O)(O)O)cc1)NC(=O)[C@H](CCCCN)NC(=O)[C@@H](NC(=O)[C@H](CC(=O)O)NC(=O)CNC(=O)[C@H](CCCCN)NC(=O)[C@H](CCSC)NC(=O)[C@H](CC(=O)O)NC(=O)[C@H](CC(C)C)NC(=O)[C@H](CCSC)NC(=O)c1ccc2c(c1)C(=O)OC21c2ccc(N(C)C)cc2Oc2cc(N(C)C)ccc21)C(C)C)C(=O)N[C@@H](CCC(=O)O)C(=O)N[C@@H](CO)C(=O)N[C@@H](CO)C(=O)N[C@@H](CC(N)=O)C(=O)N[C@@H](CC(=O)O)C(=O)O,ABL2 SH2 domain,binding,,,0.108 µM
O=C(O)CNC(=O)c1cccnc1,"BRCA1-associated protein, ZnF-UBD domain (BRAP, Homo sapiens, UniProt Q7Z569)",,,,> 1000 µM
Nc1ncnc2c1ncn2[C@@H]1O[C@H](CN(CC[C@H](N)C(=O)O)Cc2cn(CCNC(=O)c3ccc4c(c3)C(=O)OC43c4ccc(O)cc4Oc4cc(O)ccc43)nn2)[C@@H](O)[C@H]1O,"Genome polyprotein, methyltransferase domain (pol, Dengue virus type 3, UniProt Q6YMS4)",binding,dengue virus 3,,0.61 µM
O=S(=O)(O)c1nc2cc(Cl)ccc2[nH]1,"racE (Bacillus subtilis, UniProt P94556)","binding, surface plasmon resonance",,,2 ± 1 µM
O=C(CCCOc1ccc(Cl)cc1)NC1CCOC1=O (stereo not drawn),qscR DNA-bound,"DNA binding, ligand, EMSA",,"4 °C, saturating ligand",0.0079 µM
CC[C@@H](C)[C@@H](NC(=O)[C@@H](Cc1ccc(O)cc1)NC(=O)[C@H]1CCCN1C(=O)[C@@H](CCCNC(=N)N)NC(=O)[C@H](N)Cc1c[nH]cn1)C(=O)N[C@H](C)C(=O)N[C@H](Cc1c[nH]cn1)C(=O)N[C@H](CCCNC(=N)N)C(=O)N[C@@H](C(=O)N[C@H](Cc1ccc(O)cc1)C(=O)N[C@H](CO)C(=O)N[C@H](Cc1ccccc1)C(N)=O)C(C)C,"TFRC (Homo sapiens, UniProt P02786)",microscale thermophoresis,,"6 h, OFP-tagged protein",9.1 ± 3.2 µM
CSCC[C@H](NC(=O)[C@H](CC(C)C)NC(=O)[C@H](C)NC(=O)[C@H](CCCNC(=N)N)NC(=O)[C@H](Cc1ccc(OP(=O)(O)O)cc1)NC(=O)[C@H](Cc1ccccc1)NC(=O)[C@H](CC(N)=O)NC(=O)[C@H](CO)NC(=O)[C@H](CC(=O)O)NC(=O)[C@@H](NC(=O)[C@@H]1CCCN1C(=O)[C@H](CO)NC(=O)[C@@H]1CCCN1C(=O)[C@H](CC(C)C)NC(=O)c1ccc2c(c1)C(=O)OC21c2ccc(N(C)C)cc2Oc2cc(N(C)C)ccc21)[C@@H](C)O)C(=O)N[C@@H](CC(=O)O)C(=O)N[C@@H](CCC(=O)O)C(=O)N[C@@H](CCC(=O)O)C(=O)N[C@@H](CC(=O)O)C(=O)O,ABL2 SH2 domain,binding,,,1.5 µM
N=C(N)NCCC[C@H](N)C(=O)O,"uncharacterized protein (Pelagibacter ubique, UniProt Q4FLC2)",isothermal titration calorimetry,Candidatus Pelagibacter ubique,direct titration,< 0.005 µM
C[C@H](NC(=O)[C@@H](NC(=O)[C@H](CO)NC(=O)[C@H](Cc1c[nH]cn1)NC(=O)[C@@H]1CCCN1C(=O)[C@H](CC(=O)O)NC(=O)[C@H](CCC(N)=O)NC(=O)[C@H](Cc1ccc(OP(=O)(O)O)cc1)NC(=O)[C@H](Cc1c[nH]cn1)NC(=O)[C@@H]1CCCN1C(=O)[C@H](CC(=O)O)NC(=O)[C@H](CCCNC(=N)N)NC(=O)[C@H](CO)NC(=O)[C@@H]1CCCN1C(=O)[C@H](C)NC(=O)[C@@H]1CCCN1C(=O)[C@H](CC(N)=O)NC(=O)c1ccc2c(c1)C(=O)OC21c2ccc(N(C)C)cc2Oc2cc(N(C)C)ccc21)[C@@H](C)O)C(=O)N[C@@H](CC(=O)O)C(=O)O,ABL2 SH2 domain,binding,,,0.074 µM
CC(=O)N[C@H]1[C@@H](O[C@H]2[C@@H](O)[C@@H](CO)OC(O)[C@@H]2O[C@@H]2O[C@@H](C)[C@@H](O)[C@@H](O)[C@@H]2O)O[C@H](CO)[C@H](O)[C@@H]1O (stereo partly drawn),Vicia villosa lectin,binding,,2 h,> 2.24 µM
CC(C)C[C@H](NC(=O)[C@@H](NC(=O)[C@H](CO)NC(=O)[C@H](CO)NC(=O)[C@@H](NC(=O)[C@H](CC(=O)O)NC(=O)[C@H](CC(C)C)NC(=O)[C@@H]1CCCN1C(=O)[C@H](CO)NC(=O)c1ccc2c(c1)C(=O)OC21c2ccc(N(C)C)cc2Oc2cc(N(C)C)ccc21)[C@@H](C)O)C(C)C)C(=O)N[C@@H](Cc1ccc(OP(=O)(O)O)cc1)C(=O)N[C@H](C(=O)N[C@@H](C)C(=O)N[C@H](C(=O)N[C@@H](CCC(N)=O)C(=O)N1CCC[C@H]1C(=O)N[C@@H](CC(N)=O)C(=O)N[C@@H](CCC(=O)O)C(=O)N[C@@H](CC(=O)O)C(=O)O)C(C)C)[C@@H](C)O,BCAR3 SH2 domain,binding,,,1.64 µM
C[C@H]1[C@H](NC(=O)/C(=N\OC(C)(C)C(=O)O)c2csc(N)n2)C(=O)N1S(=O)(=O)O,"blaUOE-1 (Escherichia coli, UniProt Q9EXV5)","binding, surface plasmon resonance",,,62 µM
CSCC[C@H](NC(=O)[C@H](Cc1ccc(OP(=O)(O)O)cc1)NC(=O)CNC(=O)CNC(=O)[C@H](CC(=O)O)NC(=O)[C@H](CO)NC(=O)[C@H](CCC(=O)O)NC(=O)CNC(=O)[C@@H](NC(=O)[C@H](CC(C)C)NC(=O)[C@H](CO)NC(=O)c1ccc2c(c1)C(=O)OC21c2ccc(N(C)C)cc2Oc2cc(N(C)C)ccc21)[C@@H](C)O)C(=O)N[C@@H](CC(=O)O)C(=O)N[C@@H](CCSC)C(=O)N[C@@H](CO)C(=O)N[C@@H](CCCCN)C(=O)N[C@@H](CC(=O)O)C(=O)N[C@@H](CCC(=O)O)C(=O)N[C@@H](CC(=O)O)C(=O)O,BCAR3 SH2 domain,binding,,,1.27 µM
Nc1ncnc2c1ncn2[C@@H]1O[C@H](COP(=O)(O)OP(=O)(O)OP(=O)(O)O)[C@@H](O)[C@H]1O,"matB (Rhodopseudomonas palustris, UniProt Q6ND88, C106A/K488A/Q457C/R286C)",binding,,"pH 7.5, 100 mM NaCl",5.6 ± 0.6 µM
CC[C@H](C)[C@H](NC(=O)c1ccc2c(c1)C(=O)OC21c2ccc(N(C)C)cc2Oc2cc(N(C)C)ccc21)C(=O)N[C@@H](CCC(=O)O)C(=O)N[C@@H](CO)C(=O)N[C@@H](CO)C(=O)N[C@@H](CC(N)=O)C(=O)N[C@@H](Cc1ccc(O)cc1)C(=O)N[C@@H](CCSC)C(=O)N[C@@H](C)C(=O)N1CCC[C@H]1C(=O)N[C@@H](Cc1ccc(OP(=O)(O)O)cc1)C(=O)N[C@@H](CC(=O)O)C(=O)N[C@@H](CC(N)=O)C(=O)N[C@@H](Cc1ccc(O)cc1)C(=O)N[C@H](C(=O)N1CCC[C@H]1C(=O)N[C@@H](CO)C(=O)N[C@@H](C)C(=O)N[C@@H](CC(=O)O)C(=O)O)C(C)C,BCAR3 SH2 domain,binding,,,1.32 µM
CC[C@H](C)[C@H](NC(=O)[C@H](CCC(N)=O)NC(=O)[C@@H](NC(=O)[C@@H]1CCCN1C(=O)[C@@H](NC(=O)[C@H](CO)NC(=O)[C@H](Cc1ccccc1)NC(=O)[C@@H]1CCCN1C(=O)[C@H](CCC(N)=O)NC(=O)[C@@H](N)CCSC)[C@@H](C)CC)C(C)C)C(=O)N[C@H](C(=O)N[C@@H](CC(C)C)C(=O)N[C@@H](CCC(N)=O)C(=O)NCC(=O)N[C@@H](CO)C(=O)N[C@@H](CCCNC(=N)N)C(=O)N[C@@H](CCCNC(=N)N)C(=O)N[C@@H](CCCNC(=N)N)C(=O)N[C@@H](CCC(N)=O)C(=O)NCC(=O)N[C@@H](CCCNC(=N)N)C(N)=O)[C@@H](C)O,"Kcnma1 (Mus musculus, UniProt Q08460)","ion current, blocker, inside-out patch clamp",Xenopus oocytes,"range over 0.25 µM, pH 7.0, 22–24 °C, at 0 mV, added: 10 µM cytosolic Ca2+",1.2 µM
CSCC[C@H](NC(=O)CNC(=O)[C@H](Cc1ccccc1)NC(=O)[C@H](CC(=O)O)NC(=O)CNC(=O)c1ccc2c(c1)C(=O)OC21c2ccc(N(C)C)cc2Oc2cc(N(C)C)ccc21)C(=O)N[C@@H](CO)C(=O)N[C@@H](CCCNC(=N)N)C(=O)N[C@@H](CC(=O)O)C(=O)N[C@H](C(=O)N[C@@H](Cc1ccc(OP(=O)(O)O)cc1)C(=O)N[C@@H](CO)C(=O)N[C@H](C(=O)N[C@@H](CC(=O)O)C(=O)N[C@@H](Cc1ccc(O)cc1)C(=O)N[C@@H](Cc1ccc(O)cc1)C(=O)N[C@@H](CCCNC(=N)N)C(=O)N[C@H](C(=O)N[C@@H](CC(=O)O)C(=O)O)C(C)C)[C@@H](C)O)C(C)C,"Tyrosine-protein kinase Tec, SH2 domain (TEC, Homo sapiens, UniProt P42680)",binding,,,1.1 µM
O=C(O)CCCN1CC=C(c2ccccc2)CC1,"Ubiquitin carboxyl-terminal hydrolase 5, ZnF-UBD domain (USP5, Homo sapiens, UniProt P45974)",,,,561 µM

# Excerpt of the above:
SMILES,target,assay,system,conditions,Kd
N=C(N)NCCC[C@H](N)C(=O)O,"uncharacterized protein (Pelagibacter ubique, UniProt Q4FLC2)",isothermal titration calorimetry,Candidatus Pelagibacter ubique,direct titration,< 0.005 µM
CC(C)C[C@H](NC(=O)[C@H](CO)NC(=O)[C@H](CO)NC(=O)CNC(=O)[C@@H]1CCCN1C(=O)[C@H](Cc1ccc(O)cc1)NC(=O)[C@H](CC(C)C)NC(=O)[C@H](CO)NC(=O)[C@H](CS)NC(=O)[C@H](CC(C)C)NC(=O)[C@H](CC(C)C)NC(=O)CCCCCNC(=S)Nc1ccc2c(c1)C(=O)OC21c2ccc(O)cc2Oc2cc(O)ccc21)C(=O)O,"Epidermal growth factor receptor, extracellular domain (EGFR, Homo sapiens, UniProt P00533)","binding, fluorescence polarization",EGFR extracellular domain,"20 min, room temperature",0.327 µM
